Measured values gathered from unrelated publications.
Protocols differ between the studies behind these lines. “And” joins repeats or separate records; there may be more than shown. ± marks the error that the study gave.
GBA1 R534H: Lysosomal acid glucosylceramidase (GBA1, Homo sapiens, UniProt P04062, R534H)
Gria1/Gria2: Glutamate receptor AMPA 1/2 (Gria1/Gria2, Rattus norvegicus, UniProt P19490+P19491)
P4HB: Protein disulfide-isomerase (P4HB, Homo sapiens, UniProt P07237)
HDAC6: Protein deacetylase HDAC6 (HDAC6, Homo sapiens, UniProt Q9UBN7)
JAK3: Tyrosine-protein kinase JAK3 (JAK3, Homo sapiens, UniProt P52333)
CDK6: Cyclin-dependent kinase 6 (CDK6, Homo sapiens, UniProt Q00534)
FGFR1: Fibroblast growth factor receptor 1 (FGFR1, Homo sapiens, UniProt P11362)

`CC1(C)C(=O)N=C2C1=C(O)C(=O)c1ccccc12` has an IC50 of 3 µM (SMYD2 (Homo sapiens, UniProt Q9NRG4, G165E); enzyme activity, inhibitor).
With `CC(C)=CCC/C(C)=C/CC/C(C)=C/COCCCCCN1C[C@H](O)[C@@H](O)[C@H](O)[C@H]1CO` the IC50 was 1.5 µM (GBA1 R534H; inhibitor, 4MU-β-D-glucopyranoside; added: 4MU-β-D-glucopyranoside).
`O=C(O)Cc1cc2c(cc1C(=O)c1cccc(Br)c1)OCO2` has an IC50 of 4.46 µM (Gria1/Gria2; ion current, patch clamp).
`CC(=O)OC1OC(OC(C)=O)C2CC(O)(C3(C)CCCC(C)(C)C3)CCC12` (stereo not shown) gave an IC50 of under 0.5 µM (PPIF (Homo sapiens, UniProt P30405); enzyme activity, inhibitor).
With `CNC(=O)c1ccc(CNC(=O)c2cnn3ccccc23)cc1` the IC50 was 49 µM (DDR1 (Homo sapiens, UniProt Q08345); ligand displacement).
With `CC(C)(C)n1ncc2c(=O)n(Cc3cccc(F)c3)c(NCc3ccc(F)cn3)nc21` the IC50 was over 10 µM (PDE3A (Homo sapiens, UniProt Q14432); enzyme activity, inhibitor).
`COc1cc(C(=O)/C=C/c2cc(OC)c(O)c([N+](=O)[O-])c2)ccc1O` has an IC50 of 98 µM (P4HB; enzyme activity, inhibitor).
With `O=C(CCc1ccc(CNC(C(=O)O)C2CCCCC2)cn1)NO` (stereo not shown) the IC50 was 1.7 µM (HDAC10 (Homo sapiens, UniProt Q969S8); enzyme activity, inhibitor).
`Cc1cc(C(C)(C)C)ccc1OS(=O)(=O)Oc1cccc(/C=C/C(=O)NO)c1` has an IC50 of 1.96 µM (HDAC6; enzyme activity, inhibitor, fluorescence).
`Cc1cc(C)nc(NC(=S)N2CCN(c3ccncc3)CC2)c1` has an IC50 of over 100 µM (Glycerol-3-phosphate dehydrogenase 1-like protein (GPD1L, Homo sapiens, UniProt Q8N335); enzyme activity; counterscreen).
`O=C(O)Cc1cc2c(cc1C(=O)c1ccccc1Cl)OCO2` gave an IC50 of 4.35 µM (Gria1/Gria2; ion current, patch clamp).
With `OC[C@H]1[C@@H](O)[C@H](O)[C@@H](O)CN1CCCC/C=C\C12CC3CC(CC(C3)C1)C2` the IC50 was 12 µM (GBA1 R534H; inhibitor, 4MU-β-D-glucopyranoside; added: 4MU-β-D-glucopyranoside).
With `C/C(=N\Nc1nc(-c2ccccc2)cs1)c1ccc2c(c1)sc1nc(=O)c(C#N)cn12` the IC50 was 1.56 µM (DNA gyrase (gyrA/gyrB, Escherichia coli, UniProt P0AES4+P0AES6); enzyme activity, inhibitor).
For `COC(=O)Cc1cc2c(cc1C(=O)c1cccc(I)c1)OCO2`, the IC50 was 5.78 µM (Gria1/Gria2; ion current, patch clamp).
`OC[C@@H]1[C@@H](O)[C@H](O)[C@@H](O)CN1CCCCCOCc1ccc(-c2ccc(F)nc2)cc1` gave an IC50 of 3 µM (GBA1 R534H; inhibitor, 4MU-β-D-glucopyranoside; added: 4MU-β-D-glucopyranoside).
`O=C1CCC(N2C(=O)c3ccc(N4CC(C(=O)N5CC(CCN6CCC(CNC(=O)c7cccc(-c8noc(C(F)(F)F)n8)c7)(c7nc(-c8ccccc8)cs7)CC6)C5)C4)cc3C2=O)C(=O)N1` (stereo not shown) has an IC50 of 0.07 µM (HDAC9 (Homo sapiens, UniProt Q9UKV0); enzyme activity, inhibitor).
The IC50 of `N#Cc1c(-c2ccco2)cc(-c2cccs2)[nH]c1=O` is reported as ~7 µM and 7.1 µM (Protein FosB, ΔFosB isoform (Fosb, Mus musculus, UniProt P13346); DNA binding disruption, fluorescence polarization; 320 nM ΔFosB homomer, added: TMR-cdk5 oligonucleotide 25 nM).
The IC50 of `O=C(/C=C/c1ccccc1)c1ccc2ccccc2c1` is reported as 8.4 µM (P4HB; enzyme activity, inhibitor).
For `O=C(NO)c1cccc(OS(=O)(=O)Oc2cccc([N+](=O)[O-])c2)c1`, the IC50 was 0.072 µM (HDAC6; enzyme activity, inhibitor, fluorescence).
`C[C@@H](O)[C@H](NC(=O)[C@@H]1CSSC[C@@H](NC(=O)[C@H](Cc2ccccc2)NC(N)=O)C(=O)N[C@@H](Cc2ccc(NC(N)=O)cc2)C(=O)N[C@H](Cc2c[nH]c3ccccc23)C(=O)N[C@@H](CCCCN)C(=O)N[C@@H]([C@@H](C)O)C(=O)N1)C(N)=O` gave an IC50 of over 1 µM (SSTR1 (Homo sapiens, UniProt P30872); ligand displacement, radioligand).
`CC[C@H](C)C(=O)O[C@H]1C[C@@H](C)C=C2C=C[C@H](C)[C@H](CC[C@@H]3CC=CC(=O)O3)[C@H]21` gave an IC50 of about 1 µM (CFTR (Homo sapiens, UniProt P13569); apical chloride current, inhibitor; T84, basolaterally permeabilized; added: cAMP agonists).
With `CC1=NN(c2ccc(Oc3ccccc3)c(S(=O)(=O)O)c2)C(=O)C1` the IC50 was 10 to 90 µM (Protein FosB, ΔFosB isoform, with JunD (Fosb, Mus musculus, UniProt P13346); ΔFosB/JunD binding to AP-1 DNA, inhibitor, fluorescence polarization; protein, full length 280 nM, no TCEP, added: 25 nM TMR-cdk5 oligonucleotide).
The IC50 of `N#Cc1ccccc1-c1ccc(COCCCCCN2C[C@H](O)[C@@H](O)[C@H](O)[C@H]2CO)cc1` is reported as 0.6 µM (GBA1 R534H; inhibitor, 4MU-β-D-glucopyranoside; added: 4MU-β-D-glucopyranoside).
`COC(=O)c1ccc(/C=C/C(=O)c2ccc(Cl)c(Cl)c2)cc1` gave an IC50 of 5.2 µM (P4HB; enzyme activity, inhibitor).
`CCCCCCCCN1C[C@H](O)[C@@H](O)[C@H](O)[C@H]1CO` gave an IC50 of 4 µM (GBA1 R534H; inhibitor, 4MU-β-D-glucopyranoside; added: 4MU-β-D-glucopyranoside).
`CCN1CCN(c2ccc(C(=O)/C=C/c3ccc(O)c(OC)c3)cc2F)CC1` has an IC50 of over 10 µM (P4HB; enzyme activity, inhibitor).
With `C[C@H](c1ccccc1)N1C(=O)C2=Nc3cccc(Cl)c3CN2C1=S` the IC50 was 0.539 µM (JAK3; enzyme activity, inhibitor).
`O=C(/C=C/c1ccccc1OC(F)F)c1ccc(F)cc1` has an IC50 of over 100 µM (P4HB; enzyme activity, inhibitor).
`Cc1cc(C)nc(Nc2ccc([C@@H]3CCCN(C(=O)/C=C/c4c(C)nn(C)c4C)C3)nc2)n1` has an IC50 of 0.196 µM (CDK6; enzyme activity, inhibitor, ADP detection).
The IC50 of `O=C(/C=C/c1cccc(Br)c1)c1ccc2c3c(cccc13)CC2` is reported as over 100 µM (P4HB; enzyme activity, inhibitor).
`O=C(O)c1ccc(NS(=O)(=O)c2ccc(Cl)c(Cl)c2)cc1` gave an IC50 of 0.774 µM (17-beta-hydroxysteroid dehydrogenase 13 (Homo sapiens, UniProt Q7Z5P4); inhibitor, NAD(P)H-Glo; added: β-estradiol).
For `OC[C@@H]1[C@@H](O)[C@H](O)[C@@H](O)c2nccn21`, the IC50 was 0.014 µM (bglA (Thermotoga maritima, UniProt Q08638); enzyme activity, inhibitor; pH 6.8, with preincubation).
`C=CCSSC` has an IC50 of 8 µM (uncharacterized protein (Bradysia odoriphaga, UniProt A0A2S0X9G4); binding, competitive fluorescence displacement; pH 7.4).
With `C#Cc1cnc(Nc2ccnc(CO)c2)nc1Nc1ccccc1-c1nccs1` the IC50 was 0.0823 ± 0.00262 µM (IRAK4 (Homo sapiens, UniProt Q9NWZ3); cell-based).
With `CCN(CC)CC(=O)Nc1cccc(-n2cc(-c3ccc4ccc(-c5cn(-c6cccc(NC(=O)CN(CC)CC)c6)nn5)cc4c3)nn2)c1` the IC50 was over 10 µM (FGFR1; enzyme activity, inhibitor).
With `CCN(CC)CCNc1ccc(CO)c2sc3ccccc3c(=O)c12` the IC50 was ≤ 20 µM and 17.6 µM (WDR5 (Homo sapiens, UniProt P61964)).
For `OC[C@@H]1[C@@H](O)[C@H](O)[C@@H](O)CN1CCCCCOCC1CCOCC1`, the IC50 was 63 µM (GBA1 R534H; inhibitor, 4MU-β-D-glucopyranoside; added: 4MU-β-D-glucopyranoside).
`Cc1nn(-c2cccc(N)c2)c(=O)c2cnc(Nc3ccc(N4CCNCC4)cc3)nc12` has an IC50 of 1.83 µM (FGFR1; kinase activity, inhibitor, SelectScreen kinase profiling).
`CC(C)C[C@H](NC(=O)[C@H](Cc1ccc(CN)cc1)NC(=O)[C@H](Cc1ccccc1)N=[N+]=[N-])C(=O)N[C@@H](CC1CCC(C)CC1)C(=O)[C@@]1(C)CO1` (stereo partly shown) has an IC50 of 0.43 µM (PSMB8 (Homo sapiens, UniProt P28062); enzyme activity, inhibitor; lysate).
The IC50 of `OC[C@H]1N[C@H](C/C=C/CCOCC23CC4CC(CC(C4)C2)C3)[C@H](O)[C@@H](O)[C@@H]1O` is reported as 0.25 µM (GBA1 R534H; inhibitor, 4MU-β-D-glucopyranoside; added: 4MU-β-D-glucopyranoside).
`Cc1cc(NC2CCN(C)CC2)ccc1-c1cc2c(N3CCC[C@H](C(=O)NCc4ccc(OC(F)(F)F)cc4)C3)ncnc2[nH]1` has an IC50 of over 8 µM (ROCK1 (Homo sapiens, UniProt Q13464); enzyme activity, inhibitor, mobility shift).
The IC50 of `O=c1c(Oc2ccccc2)c(C(F)(F)F)oc2c(O)c(O)ccc12` is reported as 3.2 µM (Cullin-1, C-terminal domain with ROC1 (Homo sapiens, UniProt Q13616); inhibitor, FRET; added: ROC1-CUL1 CTD).
With `O=C(/C=C/c1ccc(Cl)c(C(=O)O)c1)c1ccc(Br)cc1` the IC50 was 90 µM (P4HB; enzyme activity, inhibitor).
For `CCOc1cc(CN2CC3(CC(N4CCC(C(=O)O)CC4)=NO3)C2)cc(OCC)c1-c1ccc(F)cc1`, the IC50 was 3.39 µM (SSTR5 (Homo sapiens, UniProt P35346, D119A); cAMP level, antagonist, GloSensor; AD293; D119A mutant, bandwidth 3.32, added: CST17 EC80 and forskolin).
For `Cc1cnc(Nc2ccc3c(c2)CCN(C(=O)/C=C/C(=O)C2CCCC2)C3)nc1-c1cnn(C(C)C)c1`, the IC50 was over 0.03 µM (JAK3; enzyme activity, inhibitor, ADP detection).
With `OC[C@@H]1[C@@H](O)[C@H](O)[C@@H](O)CN1CCCCCOCc1ccsc1` the IC50 was 11 µM (GBA1 R534H; inhibitor, 4MU-β-D-glucopyranoside; added: 4MU-β-D-glucopyranoside).
The IC50 of `Cc1cc(C)c(S(=O)(=O)N(CC(=O)O)c2ccc(Nc3ccnc(N4CCCC4)n3)cc2)c(C)c1` is reported as over 100 µM (CDK6; enzyme activity, inhibitor).
The IC50 of `CN1CCCC1C(=O)NC(Cc1ccc(-n2cccn2)cc1)B(O)O` (stereo not shown) is reported as over 10 µM (PSMB6/PSMB7 (Homo sapiens, UniProt P28072+Q99436); β1c caspase-like activity, inhibitor; constitutive proteasome, added: Z-LLE-AMC).
The IC50 of `O=C(O)Cc1cc2c(cc1C(=O)c1ccccc1Br)OCO2` is reported as 4.56 µM (Gria1/Gria2; ion current, patch clamp).
